Values quoted from earlier work that unrelated publications cite.
Lines come from different studies, so protocols differ. ± marks the error that the study gave.

Protein sequences, listed by entry. Tags and fused reporters are not part of them. Lines headed by an entry give the natural chain unless they say otherwise; changes in a name come on top. Residues count along the entry.
UniProt P19256, 29-250 limits assumed: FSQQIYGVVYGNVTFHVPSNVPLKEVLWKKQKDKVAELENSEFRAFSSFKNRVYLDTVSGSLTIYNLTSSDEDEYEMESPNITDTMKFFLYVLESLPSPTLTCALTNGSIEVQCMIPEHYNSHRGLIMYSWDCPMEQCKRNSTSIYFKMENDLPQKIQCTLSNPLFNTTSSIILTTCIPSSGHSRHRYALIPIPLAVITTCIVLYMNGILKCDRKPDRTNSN
UniProt P00533, whole entry, looked up, stated change not applied: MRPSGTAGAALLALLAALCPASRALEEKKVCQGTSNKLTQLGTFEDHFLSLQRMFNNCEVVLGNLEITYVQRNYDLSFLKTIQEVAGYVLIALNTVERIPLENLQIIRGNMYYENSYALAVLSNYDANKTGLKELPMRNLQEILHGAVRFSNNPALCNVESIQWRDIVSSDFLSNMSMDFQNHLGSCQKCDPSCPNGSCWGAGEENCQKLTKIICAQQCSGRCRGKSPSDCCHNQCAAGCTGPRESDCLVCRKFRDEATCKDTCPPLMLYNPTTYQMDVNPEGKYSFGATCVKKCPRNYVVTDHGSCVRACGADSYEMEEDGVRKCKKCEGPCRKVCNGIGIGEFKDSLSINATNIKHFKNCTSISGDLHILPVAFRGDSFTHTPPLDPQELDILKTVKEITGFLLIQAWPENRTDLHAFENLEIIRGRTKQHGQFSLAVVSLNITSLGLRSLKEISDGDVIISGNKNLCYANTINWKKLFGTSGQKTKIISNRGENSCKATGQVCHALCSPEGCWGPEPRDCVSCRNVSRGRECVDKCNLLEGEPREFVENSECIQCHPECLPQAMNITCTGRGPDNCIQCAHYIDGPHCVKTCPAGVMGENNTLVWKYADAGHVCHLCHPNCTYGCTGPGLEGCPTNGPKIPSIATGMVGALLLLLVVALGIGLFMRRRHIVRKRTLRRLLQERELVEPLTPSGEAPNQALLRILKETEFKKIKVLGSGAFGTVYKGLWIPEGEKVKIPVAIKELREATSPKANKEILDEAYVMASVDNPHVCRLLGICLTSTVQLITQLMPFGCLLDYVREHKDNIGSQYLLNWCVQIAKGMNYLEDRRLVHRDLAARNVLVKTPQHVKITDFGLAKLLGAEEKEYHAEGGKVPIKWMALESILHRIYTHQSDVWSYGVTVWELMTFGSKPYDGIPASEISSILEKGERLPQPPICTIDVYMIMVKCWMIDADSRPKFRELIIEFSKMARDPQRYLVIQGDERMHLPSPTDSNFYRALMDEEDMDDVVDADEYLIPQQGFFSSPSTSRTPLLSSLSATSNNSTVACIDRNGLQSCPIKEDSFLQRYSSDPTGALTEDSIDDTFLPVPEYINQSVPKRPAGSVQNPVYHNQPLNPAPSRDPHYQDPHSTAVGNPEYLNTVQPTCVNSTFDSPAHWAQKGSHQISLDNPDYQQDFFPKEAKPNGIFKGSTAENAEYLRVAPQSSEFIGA
UniProt P29474, whole entry: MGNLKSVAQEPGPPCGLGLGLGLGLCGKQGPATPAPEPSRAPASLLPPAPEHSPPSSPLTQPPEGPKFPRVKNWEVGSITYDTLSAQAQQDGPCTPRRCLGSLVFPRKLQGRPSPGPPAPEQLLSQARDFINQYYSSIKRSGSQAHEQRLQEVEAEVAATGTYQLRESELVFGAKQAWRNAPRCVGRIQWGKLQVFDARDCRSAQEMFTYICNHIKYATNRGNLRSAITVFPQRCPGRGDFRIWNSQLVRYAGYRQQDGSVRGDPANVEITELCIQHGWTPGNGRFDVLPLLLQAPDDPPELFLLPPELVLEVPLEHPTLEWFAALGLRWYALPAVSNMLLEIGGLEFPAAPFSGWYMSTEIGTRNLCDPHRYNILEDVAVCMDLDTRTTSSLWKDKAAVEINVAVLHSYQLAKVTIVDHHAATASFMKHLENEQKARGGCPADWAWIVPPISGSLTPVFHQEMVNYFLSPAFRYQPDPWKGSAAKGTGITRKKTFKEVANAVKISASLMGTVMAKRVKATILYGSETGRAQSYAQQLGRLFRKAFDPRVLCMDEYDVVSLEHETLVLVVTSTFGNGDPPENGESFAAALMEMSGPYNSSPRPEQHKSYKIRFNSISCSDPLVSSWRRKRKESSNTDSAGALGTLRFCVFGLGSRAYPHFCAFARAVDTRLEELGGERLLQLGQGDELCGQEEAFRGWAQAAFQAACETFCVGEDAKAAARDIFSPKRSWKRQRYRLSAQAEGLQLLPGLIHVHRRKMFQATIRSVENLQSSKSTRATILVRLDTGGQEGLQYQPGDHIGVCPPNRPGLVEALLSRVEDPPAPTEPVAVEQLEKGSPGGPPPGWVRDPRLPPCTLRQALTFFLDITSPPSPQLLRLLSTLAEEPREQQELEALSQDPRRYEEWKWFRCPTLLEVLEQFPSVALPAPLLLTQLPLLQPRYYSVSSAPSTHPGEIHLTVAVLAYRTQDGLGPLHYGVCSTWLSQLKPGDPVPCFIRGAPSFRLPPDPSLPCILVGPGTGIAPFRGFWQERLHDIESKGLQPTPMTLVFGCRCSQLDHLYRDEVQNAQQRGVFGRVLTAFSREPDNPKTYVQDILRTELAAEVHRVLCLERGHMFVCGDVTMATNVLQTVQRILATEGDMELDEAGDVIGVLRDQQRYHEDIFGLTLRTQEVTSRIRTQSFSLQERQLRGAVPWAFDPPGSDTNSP
UniProt P32300, whole entry: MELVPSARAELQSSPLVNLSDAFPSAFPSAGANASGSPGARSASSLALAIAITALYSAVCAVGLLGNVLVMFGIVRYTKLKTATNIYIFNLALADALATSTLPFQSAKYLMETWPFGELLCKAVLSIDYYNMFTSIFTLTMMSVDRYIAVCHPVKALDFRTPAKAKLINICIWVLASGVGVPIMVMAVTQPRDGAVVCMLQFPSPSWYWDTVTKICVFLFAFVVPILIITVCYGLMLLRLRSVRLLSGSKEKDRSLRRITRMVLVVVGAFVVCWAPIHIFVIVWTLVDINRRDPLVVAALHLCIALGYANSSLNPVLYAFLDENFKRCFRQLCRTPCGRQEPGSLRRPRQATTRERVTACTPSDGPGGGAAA
UniProt P29473, whole entry: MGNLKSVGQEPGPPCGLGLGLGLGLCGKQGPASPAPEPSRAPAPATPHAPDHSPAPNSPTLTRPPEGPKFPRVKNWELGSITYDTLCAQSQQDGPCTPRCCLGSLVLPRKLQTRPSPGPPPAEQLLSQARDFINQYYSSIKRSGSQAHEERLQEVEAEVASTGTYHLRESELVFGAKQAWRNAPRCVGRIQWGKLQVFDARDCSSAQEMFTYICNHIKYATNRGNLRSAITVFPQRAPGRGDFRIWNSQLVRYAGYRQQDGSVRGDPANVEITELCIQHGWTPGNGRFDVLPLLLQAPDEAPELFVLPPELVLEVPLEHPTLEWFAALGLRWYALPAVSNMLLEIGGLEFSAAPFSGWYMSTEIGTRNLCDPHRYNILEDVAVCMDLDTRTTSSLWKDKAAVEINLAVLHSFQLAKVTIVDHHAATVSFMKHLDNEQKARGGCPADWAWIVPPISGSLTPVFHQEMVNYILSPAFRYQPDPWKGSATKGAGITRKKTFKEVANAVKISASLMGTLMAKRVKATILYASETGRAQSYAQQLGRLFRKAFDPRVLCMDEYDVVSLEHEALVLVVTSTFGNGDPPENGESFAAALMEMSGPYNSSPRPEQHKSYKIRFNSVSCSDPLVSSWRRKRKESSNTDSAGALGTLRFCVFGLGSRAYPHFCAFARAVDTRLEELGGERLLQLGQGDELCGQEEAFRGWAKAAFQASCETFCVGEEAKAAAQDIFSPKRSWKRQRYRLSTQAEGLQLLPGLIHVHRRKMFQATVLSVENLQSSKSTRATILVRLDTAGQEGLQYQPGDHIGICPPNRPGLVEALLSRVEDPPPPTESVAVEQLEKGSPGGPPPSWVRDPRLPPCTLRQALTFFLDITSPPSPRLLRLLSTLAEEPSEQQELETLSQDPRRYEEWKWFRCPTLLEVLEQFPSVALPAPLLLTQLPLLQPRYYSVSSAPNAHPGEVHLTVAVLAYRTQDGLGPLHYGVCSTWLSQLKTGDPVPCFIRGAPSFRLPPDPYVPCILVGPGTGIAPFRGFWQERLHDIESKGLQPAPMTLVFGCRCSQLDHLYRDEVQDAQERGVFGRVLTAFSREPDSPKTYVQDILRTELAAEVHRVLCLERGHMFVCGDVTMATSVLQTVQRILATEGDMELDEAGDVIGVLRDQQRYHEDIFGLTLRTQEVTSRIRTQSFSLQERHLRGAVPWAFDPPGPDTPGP

`C[C@@H]1NC(=O)[C@@H]2CSSC[C@H](NC(=O)[C@H](CC(=O)O)NC(=O)[C@H](CC(=O)O)NC(=O)CNC(=O)[C@H](CC(=O)O)NC(=O)[C@H](Cc3ccc(O)cc3)NC1=O)C(=O)N[C@@H](CCCCN)C(=O)N[C@@H](CO)C(=O)N[C@@H](C)C(=O)N1CCC[C@H]1C(=O)N1CCC[C@H]1C(=O)N[C@@H](CO)C(=O)N2` gave an IC50 of 23 ± 46 nM (Lymphocyte function-associated antigen 3, with CD2 (CD58, Homo sapiens, UniProt P19256); lymphocyte adhesion, inhibitor; Jurkat on OVCAR-3 cells).
Under “apparent intrinsic clearance”, `O=C(Nc1ccc(-c2nc3ccccc3s2)cc1)C1CCN(S(=O)(=O)c2ccccc2Cl)CC1` is recorded as 123 µL/min/mg (mouse liver microsomes).
For `CCCCCCCC(=O)OC[C@H](COP(=O)(O)O[C@H]1[C@H](O)[C@@H](OP(=O)(O)O)[C@H](OP(=O)(O)O)[C@@H](OP(=O)(O)O)[C@H]1O)OC(=O)CCCCCCC`, the Kd was 96 nM (PBD1; SPR).
With `COc1cc(N2CCC(N3CCN(C)CC3)CC2)ccc1Nc1ncc(Cl)c(Nc2ccccc2NS(C)(=O)=O)n1` the IC50 was 1.79 nM (Epidermal growth factor receptor (EGFR, Homo sapiens, UniProt P00533, C797S/del746-750/T790M); kinase activity, inhibitor, biochemical kinase; with: ATP at Km).
With `Cc1cc(N)nc(CCc2cccc(C(CN)Cc3cc(C)cc(N)n3)c2)c1` (centres unmarked) the Ki was 6620 nM (Nitric oxide synthase 3 (NOS3, Homo sapiens, UniProt P29474)).
`[D-Ala2,Leu5,Cys6]enkephalin` — result for “concentration for 50% site loss”: 3 µM (Delta-type opioid receptor (Oprd1, Mus musculus, UniProt P32300); binding).
The Ki of `Cc1cc(N)nc(CCc2cccc(C(O)Cc3cc(C)cc(N)n3)c2)c1` (centres unmarked) is reported as 2680 nM (Nitric oxide synthase 3 (NOS3, Bos taurus, UniProt P29473)).
For `CC[C@H](C)[C@H](NC(=O)[C@H](CCCNC(=N)N)NC(=O)[C@@H](NC(=O)CNC(C)=O)[C@@H](C)O)C(=O)N[C@H](C(=O)N[C@@H](Cc1ccc(O)cc1)C(=O)N[C@@H](CC(=O)O)C(=O)N[C@@H](CCCNC(=N)N)C(=O)N[C@@]1(C)CCCC=CCCC[C@@](C)(C(=O)N[C@@H](CS)C(=O)N[C@@H](CCCNC(=N)N)C(=O)N[C@@H](CC(N)=O)C(N)=O)NC(=O)[C@H](CCSC)NC(=O)[C@H](CC(C)C)NC(=O)[C@H](Cc2ccccc2)NC1=O)[C@@H](C)CC`, the helicity was 44% (circular dichroism; sodium phosphate buffer; pH 7.4, 25 °C, buffer 5 mM).
